Measurements collected from several papers.
Numbered parts are unrelated; each lists some results of a single study.

Block 1
Target: Ras GTPase-activating protein-binding protein 1, RRM domain (G3BP1, Homo sapiens, UniProt Q13283)
Sequence of UniProt Q13283 (whole entry, looked up): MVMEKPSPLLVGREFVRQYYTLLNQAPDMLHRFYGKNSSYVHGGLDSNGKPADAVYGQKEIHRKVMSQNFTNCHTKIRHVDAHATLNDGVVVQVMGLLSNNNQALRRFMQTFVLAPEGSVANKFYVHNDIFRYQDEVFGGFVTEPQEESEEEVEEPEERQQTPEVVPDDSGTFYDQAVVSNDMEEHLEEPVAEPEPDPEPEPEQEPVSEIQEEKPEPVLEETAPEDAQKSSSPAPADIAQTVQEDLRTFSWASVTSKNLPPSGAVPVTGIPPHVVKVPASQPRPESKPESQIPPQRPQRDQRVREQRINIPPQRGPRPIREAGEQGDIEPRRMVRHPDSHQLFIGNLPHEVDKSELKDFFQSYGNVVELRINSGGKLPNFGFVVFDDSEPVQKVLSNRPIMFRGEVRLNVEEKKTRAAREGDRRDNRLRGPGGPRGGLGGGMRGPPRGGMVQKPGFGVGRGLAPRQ
Technique: RNA Bind-n-Seq
Molecule type: RNA
Sample: in vitro
Concentration: 1 µM
Notes: whole 134-nt RNA, ends assumed
Added: 150 mM KCl
Baseline: input library
Reading: higher = stronger binding
Shared flanks, not repeated: GGGAGUUCUACAGUCCGACGAUC … UGGAAUUCUCGGGUGUCAAGG
| Oligonucleotide | log2 enrichment |
| --- | --- |
| UAACUUUAGAGGAGGAUCUGAUGGAUAUGGCAGUGGACGUGGAUUUGGGGAUGGCUAUAAUGGGUAUGGAGGAGGACCUGGAGGUGGCGA | -0.743 |
| GUCCUGUGCUACACAUCGUAUGUACCGAAUCGGGAAAAAGGGUUUGGGAAAAAAAGGGAAAGUAUUAUGUUACGCCGUUCGGAUCUGCAC | -0.105 |
| GCAGGAAGUAAAAACAAAUGGAAAUGCUUCGGAUAGUGGCAGGGGUGGGGGUUGCUAAGGAAAGGGUGGGAUGGGAGUGGAUAAAGAGUU | 0.959 |
| GUCCUGUGCUACACAUCGUAUGUACCGAAUCGGGUUUUGGGGUUUUGGGGUUUUGGGGAAAGUAUUAUGUUACGCCGUUCGGAUCUGCAC | 0.401 |
| GUCCUGUGCUACACAUCGUAUGUACCGAAUCGGGAAAGGGAAAAAGGGUUUUUUUGGGAAAGUAUUAUGUUACGCCGUUCGGAUCUGCAC | 0.0906 |

Block 2
Target: Histone acetyltransferase KAT6A, winged helix 2, GST fusion (KAT6A, Homo sapiens, UniProt Q92794, residues 85-181)
Technique: protein binding microarray
Molecule type: double-stranded DNA, one strand shown
Sample: in vitro
Concentration: not given
Notes: 8-mer, flanks averaged, mean of 2 arrays, mostly near background
Baseline: not given
Reading: higher = stronger binding
Target sequence (chain): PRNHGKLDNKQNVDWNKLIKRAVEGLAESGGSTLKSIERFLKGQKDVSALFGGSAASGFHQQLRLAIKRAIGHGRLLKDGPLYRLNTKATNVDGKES
| Oligonucleotide | E-score |
| --- | --- |
| ACGTGCTC | -0.0686 |
| CCAACTGA | -0.0824 |
| GAGGTTAC | -0.0597 |
| CTACGGGC | -0.13 |
| AGATATGG | -0.0529 |
| GAATGGGA | -0.051 |

Block 3
Target: TAR DNA-binding protein 43, full length, His tag (TARDBP, Homo sapiens, UniProt Q13148, residues 1-414)
Technique: RNA Bind-n-Seq
Molecule type: RNA
Sample: in vitro
Concentration: 20 nM
Notes: 6-mer, flanks averaged, single round
Added: 150 mM KCl
Baseline: input library
Reading: higher = stronger binding
| Oligonucleotide | 6-mer enrichment (R) |
| --- | --- |
| GUGCAC | 0.935 |
| GCGAAU | 0.978 |
| UAUGCG | 1.02 |
| GUAACG | 0.959 |

Mixed results
| Substance | target | assay | test system | setting | how to read | quantity | value |
| --- | --- | --- | --- | --- | --- | --- | --- |
| PhoQ, residues 284 288 289 292 302 303 AAQSYM | PhoP, residues 12 14 15 18 19 GQALL (Escherichia coli, UniProt P23836) | Sort-seq, measured: YFP reporter | E. coli | PhoQ-PhoP variant library, added: 10 µM Mg2+ | baseline: high Mg2+ state, higher = stronger signaling | fold induction | 6.17 |

Excerpt of the above (block 1):
| Oligonucleotide | log2 enrichment |
| --- | --- |
| GUCCUGUGCUACACAUCGUAUGUACCGAAUCGGGUUUUGGGGUUUUGGGGUUUUGGGGAAAGUAUUAUGUUACGCCGUUCGGAUCUGCAC | 0.401 |
| GUCCUGUGCUACACAUCGUAUGUACCGAAUCGGGAAAGGGAAAAAGGGUUUUUUUGGGAAAGUAUUAUGUUACGCCGUUCGGAUCUGCAC | 0.0906 |
